Experimental data gathered from unrelated publications.
Each numbered part is a random draw from the data of one study; scales do not carry over between parts.

Set 1 — method: protein-binding microarray; form: double-stranded DNA, one strand shown; medium: in vitro; tested at: not given; reading: higher = stronger binding
Target: Protein max, full length (MAX, Homo sapiens, UniProt P61244-2, residues 1-151)
Notes: k-mer, scored over probes, only values ≥0.25
| Strand | E-score |
| --- | --- |
| ATGTGTTA | 0.337 |
| TGCGCGCA | 0.299 |
| CATGTGCG | 0.486 |
| CATGGTTC | 0.317 |
| ATGTGGCC | 0.357 |
| AAACATGA | 0.278 |
| AAGCACAT | 0.371 |
| ACAATGTG | 0.385 |
| CATGGGGA | 0.377 |
| ATGGCTGC | 0.25 |
| AGCATGAG | 0.368 |
| CCACCCCC | 0.281 |
| CACGCCGA | 0.369 |
| CCGCGCGG | 0.272 |
| CGTGCCGA | 0.313 |
| TCACGCCA | 0.283 |

Set 2 — method: RNA Bind-n-Seq; form: RNA; medium: in vitro; tested at: not given; notes: RNA with constant flanks, ends assumed; relative to: input RNA pool; reading: higher = stronger binding
Target: RING finger protein unkempt homolog, zinc fingers 1-6, GST-SBP tag (UNK, Homo sapiens, UniProt Q9C0B0, residues 30-357)
Target sequence (chain): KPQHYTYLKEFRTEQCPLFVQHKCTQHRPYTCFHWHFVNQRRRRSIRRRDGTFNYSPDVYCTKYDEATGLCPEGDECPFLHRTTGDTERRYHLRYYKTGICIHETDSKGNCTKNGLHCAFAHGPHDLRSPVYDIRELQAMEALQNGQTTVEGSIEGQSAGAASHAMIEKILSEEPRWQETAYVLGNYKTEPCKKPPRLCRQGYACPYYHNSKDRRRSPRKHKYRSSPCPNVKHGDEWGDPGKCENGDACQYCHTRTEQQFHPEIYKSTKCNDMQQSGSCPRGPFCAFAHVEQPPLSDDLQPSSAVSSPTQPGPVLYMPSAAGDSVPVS
| Strand | bound/input enrichment |
| --- | --- |
| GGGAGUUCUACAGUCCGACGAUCAUGGGUGGAUUAUUUUCUCGAUGGAGGACAAAACCUUCAACUGUAGAAGUUCUAGAAAGUACCGAUAAGGAAAUUCAAGCAUUGGAAGAAUUUAGGGAAAAAAAUCAGAGAUUACAAAAACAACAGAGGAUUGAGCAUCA | 0.548 ratio |
| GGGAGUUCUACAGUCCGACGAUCCGACUCGGGGACGGCCUGGGUGCUGCCCUGGGCCCGGGGAACAGAACACACAUCUGGCUUUUUGUCCGAGGUCUUCAUGGAAAGAGUGGUACAUGGUGGGAUGAGCAUCUUUCUGAAGAACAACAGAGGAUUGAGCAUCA | 0.189 ratio |
| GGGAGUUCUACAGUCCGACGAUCUAGUGUUUGCUUUGUGAACAUGUGUAUUGUAUAUAUUCUGUAUAGUUAUAUUGUACUGAAAUCCGCUUGUUUGAUAUAAGGAAAAUAUGUAUUGAGUACCUUUUUGCUAGCCUGAUUGUUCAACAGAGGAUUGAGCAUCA | 3.68 ratio |
| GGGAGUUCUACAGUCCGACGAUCACUGAGCCAUUUCCUAUUUUAAAUGGCUUCUAUAGAAAAUUAACAACUCAGUUAUUAAACCCGCAGGAUCCUACAAUGAUACAUCUAGUGAAAGUAGACUUAGUUAACUUAUUUAUUUCUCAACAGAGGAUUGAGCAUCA | 62.1 ratio |
| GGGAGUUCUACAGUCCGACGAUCGUUUUCAUGCCCGGCCUUUGUUCCCCCCGUCCAUGUGUCCUUUAGUUUCAAACAGAUCUUUACCGUUUGUGCUUCAUAAGCCAAUUCUUAUUAUGAUUUUGGGGGACUGUUCUUCAAAGACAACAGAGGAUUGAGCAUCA | 0.283 ratio |
| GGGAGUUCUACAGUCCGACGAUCGAAGUCGUUUCUCCCCAACUCCCAACUCCUGAAGGUUGCUGCCUGCAUAUUUACUCUUCAUCCGUGCUAUUUUCCUGUAUGUCAUUGUGAGCAAGCUGUGAUUAAUAAAGAAUUGGAGUUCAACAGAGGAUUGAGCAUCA | 0.254 ratio |
| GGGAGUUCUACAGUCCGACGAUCGGGGUGGACCUCUUUCUUAAUGUCCAGUGUCCUAUGUCAUAAGAUUCGGUGCAAUAAGUAUUCCGACCAGCAAUAAAUACUCAGCUUGGAGAUCAUCAUGAUCUUUGUGGGUAGCAUAUCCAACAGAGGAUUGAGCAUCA | 0.0899 ratio |
| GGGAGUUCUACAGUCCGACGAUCAAGUUUGUACCCCUGUCCUUCCCUUUACGCCACUAGUGUGUAGGCAGAUGUCUGAGUCCCCCGGUGGUUUCUAGGAUUGAUAGCAAUUAGCUUUGAUGAACCCAUCCCAGGAAAAAUAAACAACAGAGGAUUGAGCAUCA | 0.633 ratio |

Set 3 — method: aptamer microarray, sandwich; form: DNA with 2'F-ANA; medium: in vitro; tested at: 200 nM; together with: Cy3 exosite-II aptamer, 400 nM; reading: higher = stronger binding; strand: GGTTGGTGTGGTTGG
Target: Prothrombin, mature alpha-thrombin (F2, Homo sapiens, UniProt P00734)
Notes: whole 15-mer aptamer, many near background
| Modification | mean fluorescence intensity |
| --- | --- |
| 2'F-ANA at 3 4 6 7 9 11 15 | 421 a.u. |
| 2'F-ANA at 1 2 3 4 7 11 12 14 | 92.3 a.u. |
| 2'F-ANA at 1 5 6 8 11 13 14 15 | 50.2 a.u. |
| 2'F-ANA at 1 2 4 5 10 11 13 15 | 48.2 a.u. |
| 2'F-ANA at 4 6 8 9 10 12 15 | 91.6 a.u. |
| 2'F-ANA at 4 5 9 10 13 15 | 47.8 a.u. |
| 2'F-ANA at 2 4 5 6 10 | 107 a.u. |
| 2'F-ANA at 1 2 3 4 6 7 9 10 12 13 14 | 52 a.u. |
| 2'F-ANA at 1 5 8 9 11 12 14 15 | 120 a.u. |
| 2'F-ANA at 2 4 5 7 8 9 10 11 14 | 75.4 a.u. |
| 2'F-ANA at 2 3 6 10 11 14 | 274 a.u. |
| 2'F-ANA at 1 2 5 6 13 | 48.6 a.u. |
| 2'F-ANA at 1 2 5 6 7 10 11 14 15 | 46.5 a.u. |
| 2'F-ANA at 2 3 6 8 9 12 13 14 15 | 339 a.u. |
| 2'F-ANA at 1 2 4 5 6 9 10 12 14 | 46.8 a.u. |
| 2'F-ANA at 3 4 7 8 14 | 432 a.u. |
| 2'F-ANA at 2 3 4 5 7 8 11 14 15 | 54.8 a.u. |
| 2'F-ANA at 1 2 6 8 9 12 13 15 | 251 a.u. |
| 2'F-ANA at 2 7 8 9 10 12 13 15 | 189 a.u. |
| 2'F-ANA at 4 5 6 7 8 10 11 | 130 a.u. |
| 2'F-ANA at 1 3 4 5 8 9 10 11 15 | 91.1 a.u. |
| 2'F-ANA at 1 6 10 11 12 14 | 50.4 a.u. |
| 2'F-ANA at 1 4 5 6 9 12 13 14 15 | 68.1 a.u. |

Set 4 — method: RNA Bind-n-Seq; form: RNA; medium: in vitro; tested at: 365 nM; relative to: no-protein control; reading: higher = stronger binding
Target: RNA binding protein fox-1 homolog 2, RRM domain, GST-SBP tag (RBFOX2, Homo sapiens, UniProt O43251-10, residues 100-194)
Notes: natural RNA segment, single round, ends assumed
Residues (chain): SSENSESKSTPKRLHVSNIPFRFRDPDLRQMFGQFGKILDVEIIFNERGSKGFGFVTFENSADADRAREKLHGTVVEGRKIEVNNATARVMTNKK
| Strand | RBNS enrichment (R) |
| --- | --- |
| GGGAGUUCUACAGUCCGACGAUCGCUUCUCUACGCUGAGCAAAGCCCACCUUUGACCCCAGCUGACUCUCUCCUGGGCAGGAAAGCCCUCCUAGGGGAGAUUUCCAGGAGAUGUGGCCUUGACGAGUUUCUUCUGGAAUUCUCGGGUGCCAA | 0.213 |
| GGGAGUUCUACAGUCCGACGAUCGACACCUGGCUGCCGACCUCACUCAGCUCACAGUGGGCUCCAGGCCCGUUUUUACUCAGACAGGGACAGUGUUCACCUACUUGAUACUGCCGUGUUUCUUACCCUCCCUUUGGAAUUCUCGGGUGCCAA | 0.297 |
| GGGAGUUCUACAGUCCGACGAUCUUUAAUGUAAUCAAGAAAUUCAAGCUGAAGAGAUGUAACAUUGGUUCUGUAUAAUUGAUAGUACAAGUGUGGACCCUUAUAUUUCUAACAGUUCAUUGCUUUGGAAUGGCUGGAAUUCUCGGGUGCCAA | 0.385 |
| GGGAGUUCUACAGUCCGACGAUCAGCUAUAGUACCUUCCAGAUGGGCAAAAGUGUACACUACAGUUGAGGAGCUGAACCUUAUUAGGUUGGAUGUCGAUCAGGAACCUGUUUGCCCUUUGCUGGGAAGCCUUCUGGAAUUCUCGGGUGCCAA | 0.385 |
| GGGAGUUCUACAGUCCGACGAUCGAUCGGGGCCAGAGGCAGAACCCUGGUGAGGAAGCUCCAGUCCUGCUCUCUACCCAGCCCAUCUUGCCUCCAUGGUGCCUCUGGAGGCCUCUGGGCCUCCUCUAACAGGGUGGAAUUCUCGGGUGCCAA | 0.286 |
| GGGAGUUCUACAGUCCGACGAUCUGUUGCUGCCAUUUUGCAUUUUUGAAUCAUCUUGUGUAAUUGUCACCAUGAAAGUGUUACUCAGAAUUGUCAUAGAUUUUCUCUUCUUUGUGCAAAAACAUGGAAAAUUGUGGAAUUCUCGGGUGCCAA | 10.3 |
| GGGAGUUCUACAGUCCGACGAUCAUGCUGCAUUUCUUUGUUUUUAACACCUGGUUUUAUAGGUUCUCUUUCGUUUGUUAAGAAACUGGAUUCUUUUCUCCUAACCAGUGCUUAAUUUGUGUUUUUGGAUUUUCUGGAAUUCUCGGGUGCCAA | 1.27 |
| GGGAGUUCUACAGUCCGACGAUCGUGAUUAACCCUGGCUGUUGAAUCACUCCACUGACCAGUCUCCAGCUUGAGUCGGGGACAUGUUAACUUCGGAAAGAAGCCCCCGUCCCUGCCAUCCCAUAGAUUCUGAAUGGAAUUCUCGGGUGCCAA | 0.592 |
| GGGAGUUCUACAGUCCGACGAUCUUCCAAUCUGGACAUGAUGGGGCUGAUUCCAGAUGGUUUUUCUGAAAUUUCAUUAAGGUAGGUCAGCGUCAUUUGUCUCUGUUUAGGUAAAAUAUAAAAACCCUGCCCAGUGGAAUUCUCGGGUGCCAA | 0.346 |
| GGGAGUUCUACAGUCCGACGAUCCCCUGGUCUUUGUAGCCAUCUUUGUCCUCUGAAAUGAGGAACCGAUCCUCUUUAAAGUUCCCAAAUAGUUUUCUACCAUAUUUAGAAAGUAUACGUUUAGCCCAGAGGUGUGGAAUUCUCGGGUGCCAA | 0.32 |
| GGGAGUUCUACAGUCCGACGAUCCUUGAUCUGUGAGUCACUCUCCAGUUUGGGACAUGGGUCUGUCUGUGGCUUUGAGAAAAGGUACUUUCAAAAGAGGGCUUUCCAGAGCACAGCUCACAGCCAGCUGUUAGUGGAAUUCUCGGGUGCCAA | 0.201 |
| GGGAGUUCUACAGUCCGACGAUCUUCUGGUGCUUUUGCUUACUAAGAGACCGAUAUUCUUAAGUUGUUUUCUUGUUUUAACAGCCUUGAGAAAUGUUUGGUUUUGGCCAGCAGAAUUCUUGUCUACUUUUUUCUGGAAUUCUCGGGUGCCAA | 0.332 |

For quick reference, copied from above (set 3):
| Modification | mean fluorescence intensity |
| --- | --- |
| 2'F-ANA at 1 2 6 8 9 12 13 15 | 251 a.u. |
| 2'F-ANA at 2 7 8 9 10 12 13 15 | 189 a.u. |
| 2'F-ANA at 4 5 6 7 8 10 11 | 130 a.u. |
